Measurements gathered from unrelated publications.
Every numbered part comes from another study and shows a few of its results, in no order.

Sample 1
Target: RING finger protein unkempt homolog, zinc fingers 1-6, GST-SBP tag (UNK, Homo sapiens, UniProt Q9C0B0, residues 30-357)
Chain of UniProt Q9C0B0 (30-357, looked up): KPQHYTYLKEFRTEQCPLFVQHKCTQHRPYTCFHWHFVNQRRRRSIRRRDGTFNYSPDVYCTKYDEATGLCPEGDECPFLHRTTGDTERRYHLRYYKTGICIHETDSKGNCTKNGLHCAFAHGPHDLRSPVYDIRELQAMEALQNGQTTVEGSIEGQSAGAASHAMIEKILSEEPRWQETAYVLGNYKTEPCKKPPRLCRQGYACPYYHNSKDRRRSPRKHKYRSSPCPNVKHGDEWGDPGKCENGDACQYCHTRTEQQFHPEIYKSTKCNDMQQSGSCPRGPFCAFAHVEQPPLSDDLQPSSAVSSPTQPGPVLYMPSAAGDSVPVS
Technique: RNA Bind-n-Seq
Molecule type: RNA
Medium: in vitro
Concentration: not given
Setting: RNA with constant flanks, human and mouse sites, ends assumed
Relative to: input RNA pool
Direction: higher = stronger binding
Shared flanks, not repeated: GGGAGUUCUACAGUCCGACGAUC … CAACAGAGGAUUGAGCAUCA
Strand	bound/input enrichment [ratio]
GAGAGCUUUAUUACCAGACAUGAUCUUUCAGGAAAGGUUGUCAAUAUAGAUACAAAUUCACUGAGAUCCUCCAUGAGGCCUGGCUUUGAAGAUAUAAUCCGAAGGUGUAUUCAGAGAUUU	0.238
AGAUCCAUUGCCGUAGAUCCCAGCACAAGCAAGUCGGCAGACUCGAGGUGGCAAAAAGAAGUAGCGAUGCUGAGGAAGGAGACCGAGGACCUUCAACAACAAUGCCUUUAUCUAAAUGAA	0.212
AUUCCUGAGGAUAAAAAAGUCAGAGUUCAGAGGACACAGAGCACUUUUGACCCAUUUGAGAAACCAGCUAAUCAAGUAAAGAGGGUGCAUUCUGAGAACAAUGCUUGCAUUAACUUUAAG	0.154
CCACCUCACCCAGGCAUGGGCCCUCCCCAGAGUCCAAUGGAUCAACACAGCCAAGGUUAUAUGUCACCACACCCAUCUCCAUUAGGAGCCCCAGAGCACGUCUCCAGCCCUAUGUCUGGA	0.32
CAGCCCUGCAUGGGUUUGUUUGUUUUUUUACUGCUCACUCCCAACCUUUUGUAAUGCCAUUUUCUAAACUUAUUUCUGAGUGUAGUCUCAGCUUAAAGUUGUGUAAUACUAAAAUCACGA	0.0963

Sample 2
Target: RNA binding protein fox-1 homolog 2, RRM domain, GST-SBP tag (RBFOX2, Homo sapiens, UniProt O43251-10, residues 100-194)
Technique: RNA Bind-n-Seq
Molecule type: RNA
Medium: in vitro
Concentration: 365 nM
Setting: natural RNA segment, single round, ends assumed
Relative to: no-protein control
Direction: higher = stronger binding
Residues (chain): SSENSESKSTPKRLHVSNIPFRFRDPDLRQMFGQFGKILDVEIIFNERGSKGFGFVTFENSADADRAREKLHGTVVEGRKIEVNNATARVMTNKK
Strand	RBNS enrichment (R)
GGGAGUUCUACAGUCCGACGAUCAACAUCAGGCCAGGACACCAUUUAUUUAACCAAGUAAUGGAGGAGAGUGAAACAUUUUCCAAGGCCUUAUUUCUUUUUCAGAAUGCUUUAAGUGUUGAUUAUAUGUGCUGUGGAAUUCUCGGGUGCCAA	0.284
GGGAGUUCUACAGUCCGACGAUCAAGCUGUUUAAGAAGGCCAUGACUCUUUAGGUGUGUAUGUGUACCUUUCAGCAUCCUAGGAAUUUUUAUACUAAAAGCAAAAUGUUUUUUCCAGUUAGUCUUCUUCAAGGUGGAAUUCUCGGGUGCCAA	0.623
GGGAGUUCUACAGUCCGACGAUCAUGCUUUGUUUUGGGGCUGUAUUUUUGAAAUACUCUACAAGAAAGCUGUGGCUCAACACAUGAGAAGAAGCACGAAGCAGUUAGGCUGUACAUCAGACAGAAGGGUAAUGUGGAAUUCUCGGGUGCCAA	0.794
GGGAGUUCUACAGUCCGACGAUCGUCCUCAAAAAGGACUUAGCCCCGGGAGUUGUUUAUAAAAUUUCCCCCACUUGUAUACAGUGUGCACUAAAAGAAAAUGUAUUUUAAUAUCUAAUGCCUGGGCUCUGAGCUGGAAUUCUCGGGUGCCAA	1.25

Sample 3
Target: human cyclin A2
Effect on: peptide binding
Technique: competitive growth sequencing
Molecule type: peptide
Organism: Saccharomyces cerevisiae
Strain: cyclin A2-Cln2 fusion strain
Concentration: concentration not given
Setting: peptide tiling library
Relative to: unfused Cln2 strain
Direction: direction not given
Molecule	binding score
VKTKKRLNFDDK	2.61
GFGFLLFICKLTF	1.43
GPPAKARAELGESGHQ	-0.345
PYSPALPAFGLSYTPV	0.0313

Other studies, line by line
Molecule	target	test	system	setting	how to read	quantity	result
PhoQ, residues 284 288 289 292 302 303 QWQEDG	PhoP, residues 12 14 15 18 19 SQCLL (Escherichia coli, UniProt P23836)	Sort-seq, item: YFP reporter	E. coli	PhoQ-PhoP variant library, added: 10 µM Mg2+	relative to: high Mg2+ state, higher = stronger signaling	fold induction	15.2
